Measurements from different studies.
Parts stem from different laboratories: compare values within a part only. Positions count from the first letter of the parent shown.
UniProt P08588, sequence (whole entry, looked up): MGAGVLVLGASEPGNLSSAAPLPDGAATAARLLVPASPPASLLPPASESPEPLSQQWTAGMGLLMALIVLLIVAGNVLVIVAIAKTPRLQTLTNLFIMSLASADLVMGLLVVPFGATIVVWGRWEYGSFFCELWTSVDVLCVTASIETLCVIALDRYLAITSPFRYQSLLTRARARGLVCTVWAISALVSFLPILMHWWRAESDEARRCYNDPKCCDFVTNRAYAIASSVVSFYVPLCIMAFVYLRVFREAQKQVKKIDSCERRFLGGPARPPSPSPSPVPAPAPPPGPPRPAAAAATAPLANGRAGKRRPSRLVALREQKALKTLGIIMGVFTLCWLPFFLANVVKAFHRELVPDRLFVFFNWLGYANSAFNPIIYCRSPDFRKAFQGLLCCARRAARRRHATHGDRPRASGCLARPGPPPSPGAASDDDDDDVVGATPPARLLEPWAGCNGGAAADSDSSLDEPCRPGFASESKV
UniProt P28221, sequence (whole entry, looked up): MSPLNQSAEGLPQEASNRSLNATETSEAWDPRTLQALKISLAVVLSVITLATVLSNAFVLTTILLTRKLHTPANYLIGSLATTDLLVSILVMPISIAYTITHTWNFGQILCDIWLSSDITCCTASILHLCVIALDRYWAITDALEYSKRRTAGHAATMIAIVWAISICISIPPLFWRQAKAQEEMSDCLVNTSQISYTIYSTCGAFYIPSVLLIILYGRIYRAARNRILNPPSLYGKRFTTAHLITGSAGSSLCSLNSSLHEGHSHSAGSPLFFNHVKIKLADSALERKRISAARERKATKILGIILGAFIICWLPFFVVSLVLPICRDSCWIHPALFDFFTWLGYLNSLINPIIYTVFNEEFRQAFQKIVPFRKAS
UniProt P08913, sequence (whole entry, looked up): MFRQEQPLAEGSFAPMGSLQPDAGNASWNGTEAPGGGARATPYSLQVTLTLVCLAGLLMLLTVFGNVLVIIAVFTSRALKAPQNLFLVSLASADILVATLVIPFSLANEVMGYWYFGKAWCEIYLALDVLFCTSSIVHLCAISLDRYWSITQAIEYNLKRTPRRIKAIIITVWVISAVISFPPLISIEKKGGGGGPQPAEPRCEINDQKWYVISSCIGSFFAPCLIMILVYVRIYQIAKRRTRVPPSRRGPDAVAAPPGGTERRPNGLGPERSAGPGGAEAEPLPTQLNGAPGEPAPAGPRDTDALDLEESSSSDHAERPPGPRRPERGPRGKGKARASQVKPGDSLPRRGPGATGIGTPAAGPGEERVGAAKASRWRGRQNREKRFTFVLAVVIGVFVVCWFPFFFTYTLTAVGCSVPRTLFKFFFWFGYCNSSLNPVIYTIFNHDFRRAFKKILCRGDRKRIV
UniProt P93024, sequence (whole entry, looked up): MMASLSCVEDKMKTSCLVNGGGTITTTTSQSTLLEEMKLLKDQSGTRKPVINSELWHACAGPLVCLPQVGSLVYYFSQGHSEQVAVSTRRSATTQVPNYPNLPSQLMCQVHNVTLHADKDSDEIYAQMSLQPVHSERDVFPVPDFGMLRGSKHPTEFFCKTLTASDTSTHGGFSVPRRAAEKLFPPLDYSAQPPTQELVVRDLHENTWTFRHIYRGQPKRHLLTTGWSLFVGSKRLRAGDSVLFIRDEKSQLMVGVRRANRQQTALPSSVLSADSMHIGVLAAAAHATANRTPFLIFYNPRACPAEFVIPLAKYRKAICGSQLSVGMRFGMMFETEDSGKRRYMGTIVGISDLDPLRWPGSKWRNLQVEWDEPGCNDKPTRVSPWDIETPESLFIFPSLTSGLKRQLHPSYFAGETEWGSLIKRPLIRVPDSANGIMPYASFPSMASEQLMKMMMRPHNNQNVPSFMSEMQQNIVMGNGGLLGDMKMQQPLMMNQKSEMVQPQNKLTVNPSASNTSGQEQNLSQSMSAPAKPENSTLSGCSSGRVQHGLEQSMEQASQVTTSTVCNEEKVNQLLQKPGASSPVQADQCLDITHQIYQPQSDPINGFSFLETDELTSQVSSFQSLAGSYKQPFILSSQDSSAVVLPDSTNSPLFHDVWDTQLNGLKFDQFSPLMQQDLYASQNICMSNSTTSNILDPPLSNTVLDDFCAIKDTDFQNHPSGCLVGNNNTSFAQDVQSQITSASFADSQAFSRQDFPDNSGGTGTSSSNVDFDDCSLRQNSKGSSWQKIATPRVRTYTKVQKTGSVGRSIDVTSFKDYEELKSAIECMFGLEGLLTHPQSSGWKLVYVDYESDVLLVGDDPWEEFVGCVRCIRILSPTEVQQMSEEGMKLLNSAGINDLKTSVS

Study 1 — observed: enzyme activity; mode: inhibitor; concentration: 0.5 µM; baseline: control
Target: Protein kinase C epsilon type (PRKCE, Homo sapiens, UniProt Q02156)
UniProt Q02156, sequence (whole entry, looked up): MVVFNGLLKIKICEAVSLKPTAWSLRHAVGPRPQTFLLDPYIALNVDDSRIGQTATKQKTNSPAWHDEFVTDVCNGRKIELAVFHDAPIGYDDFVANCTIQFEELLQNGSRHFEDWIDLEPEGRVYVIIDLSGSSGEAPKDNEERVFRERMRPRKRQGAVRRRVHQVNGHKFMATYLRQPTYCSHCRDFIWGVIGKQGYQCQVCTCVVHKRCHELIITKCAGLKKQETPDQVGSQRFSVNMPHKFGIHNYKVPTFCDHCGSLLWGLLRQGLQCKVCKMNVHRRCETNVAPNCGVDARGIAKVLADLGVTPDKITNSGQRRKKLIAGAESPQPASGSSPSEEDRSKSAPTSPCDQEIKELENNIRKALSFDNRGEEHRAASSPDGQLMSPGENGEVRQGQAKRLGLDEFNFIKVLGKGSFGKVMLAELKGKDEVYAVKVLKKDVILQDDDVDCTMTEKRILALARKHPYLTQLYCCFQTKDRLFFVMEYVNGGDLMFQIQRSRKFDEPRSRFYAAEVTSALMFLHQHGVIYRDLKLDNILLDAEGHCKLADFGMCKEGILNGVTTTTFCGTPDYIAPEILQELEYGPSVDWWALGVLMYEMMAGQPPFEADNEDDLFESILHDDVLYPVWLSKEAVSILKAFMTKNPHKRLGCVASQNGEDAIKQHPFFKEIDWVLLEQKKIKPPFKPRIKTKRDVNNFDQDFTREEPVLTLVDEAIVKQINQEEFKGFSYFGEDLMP
Compound	remaining activity [%]
Cc1cccc(-c2[nH]c(C(C)(C)C)nc2-c2ccc3c(c2)OCO3)n1	97.9
COc1cc2ncnc(Nc3ccc(Oc4ccccc4)cc3)c2cc1OC	94.6
COc1cc2ncnc(Nc3ccc(F)c(Cl)c3)c2cc1OCCCN1CCOCC1	97.3
Nc1ccc2ncnc(NCCc3ccc(Oc4ccccc4)cc3)c2c1	109
COc1ccc(CNC(=O)Nc2ncc([N+](=O)[O-])s2)cc1	92.4
O=C1NC(=O)C(c2cn(CCCn3ccnc3)c3ccccc23)=C1Nc1ccccc1	12.8
Cn1sc(=O)n(Cc2ccccc2)c1=O	94.8
Cc1ccc(NC(=O)c2ccc(CN3CCN(C)CC3)cc2)cc1Nc1nc(-c2cccnc2)cs1	100
CN(C)c1ccc(C=C2C(=O)Nc3ccccc32)cc1	92.6
O=C(O)c1ccc2c3c1cccc3c(=O)n1c3ccccc3nc21	113
CO[C@H]1C[C@@H]2CC[C@@H](C)[C@@](O)(O2)C(=O)C(=O)N2CCCC[C@H]2C(=O)O[C@H]([C@H](C)C[C@@H]2CC[C@@H](O)[C@H](OC)C2)CC(=O)[C@H](C)/C=C(\C)[C@@H](O)[C@@H](OC)C(=O)[C@H](C)C[C@H](C)/C=C/C=C/C=C/1C	105
COc1ccc(OC)c2c(=S)c3ccccc3[nH]c12	93.3
Nc1ncnc2n[nH]c(Nc3ccc(F)cc3)c12	99.5
Cc1ccc(Nc2nccc(N(C)c3ccc4c(C)n(C)nc4c3)n2)cc1S(N)(=O)=O	100
OCC(O)CCON=C1C(c2c(O)[nH]c3ccccc23)=Nc2ccccc21 (stereo not drawn)	92.2

Study 2 — observed: binding; method: radioligand binding; concentration: 10 µM
SMILES: CNC(=O)c1cc(C(=O)N[C@H]2[C@@H]3COC[C@@H]32)cc2c1O[C@@H](CF)[C@@H]2c1ccccc1
target	inhibition [%]
HTR1D (Homo sapiens, UniProt P28221)	-8.07
ADRB1 (Homo sapiens, UniProt P08588)	6.93
ADRA2A (Homo sapiens, UniProt P08913)	13.8
SIGMAR1 (Homo sapiens, UniProt Q99720)	10.2

Study 3 — target: DBP, bZIP domain (human); method: DHFR protein complementation; sample: yeast; baseline: wild-type JUN-FOS pair; direction: higher = stronger binding
Notes: single substitutions, most at no-binding floor
Starting sequence: JUN, bZIP domain (human); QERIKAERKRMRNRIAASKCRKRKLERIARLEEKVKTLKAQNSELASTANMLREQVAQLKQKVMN; partner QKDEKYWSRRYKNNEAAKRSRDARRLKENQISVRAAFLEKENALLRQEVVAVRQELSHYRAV
Change	binding fitness [natural log]
L38F	-1.49
L45D	-1.52
S43A	-1.37
L31V	-1.55
E32T	-1.53
K36L	-1.49
K34L	-1.37
E33P	-1.51

Mixed results
B1: ARF2 727-859 (Arabidopsis thaliana, UniProt Q94JM3); chain TKTNSSRSCTKVHKQGIALGRSVDLSKFQNYEELVAELDRLFEFNGELMAPKKDWLIVYTDEENDMMLVGDDPWQEFCCMVRKIFIYTKEEVRKMNPGTLSCRSEEEAVVGEGSDAKDAKSASNPSLSSAGNS
Molecule	tested on	test	conditions	scale	quantity	value
CCOc1ccc2ccccc2c1C(=O)N[C@@H]1C(=O)N2[C@@H]1SC(C)(C)[C@@H]2C(=O)O	Sarcocystis neurona	parasite growth	10 µM, 96 h, second screen	baseline: untreated	log2 fold change	0.29
B1 (ARF2 727-859)	ARF5 788-902 (Arabidopsis thaliana, UniProt P93024)	two-hybrid		baseline: out of 2 tests, higher = firmer interaction	positive tests	0
CO/N=C(\C(=O)N[C@@H]1C(=O)N2C(C(=O)O)=C(COC(N)=O)CS[C@H]12)c1ccco1	Sarcocystis neurona	parasite growth	10 µM, 96 h, second screen	baseline: untreated	log2 fold change	0.47

A few entries again (mixed results):
Molecule	tested on	test	conditions	scale	quantity	value
B1 (ARF2 727-859)	ARF5 788-902 (Arabidopsis thaliana, UniProt P93024)	two-hybrid		baseline: out of 2 tests, higher = firmer interaction	positive tests	0
CO/N=C(\C(=O)N[C@@H]1C(=O)N2C(C(=O)O)=C(COC(N)=O)CS[C@H]12)c1ccco1	Sarcocystis neurona	parasite growth	10 µM, 96 h, second screen	baseline: untreated	log2 fold change	0.47
CCOc1ccc2ccccc2c1C(=O)N[C@@H]1C(=O)N2[C@@H]1SC(C)(C)[C@@H]2C(=O)O	Sarcocystis neurona	parasite growth	10 µM, 96 h, second screen	baseline: untreated	log2 fold change	0.29
